Results pooled from the literature.
Compare with care: the assays were run in different laboratories.

Molecule	tested on	assay	system	conditions	how to read	endpoint	result
elbasvir	SARS-CoV-2	viral replication	Huh-7			IC50	> 2 µM
CCC(=O)CCCCC[C@@H]1NC(=O)[C@H]2CCCCN2C(=O)[C@H]([C@@H](C)CC)NC(=O)[C@H](Cc2cn(OC)c3ccccc23)NC1=O	SARS-CoV-2		Vero E6	concentration not given, NYC laboratory		viral replication inhibition	inactive
Nc1ncnc2c([C@@H]3N[C@H](CO)[C@@H](O)[C@H]3O)c[nH]c12	Marburg virus	antibody staining	HeLa, Musoke	200 µM		antigen-positive cells	0.3%
Cn1c(=O)c2c(nc(C=Cc3cccc(Cl)c3)n2C)n(C)c1=O	SARS-CoV-2	viral replication, inhibitor	Vero E6, USA-WA1/2020	24 h		EC90	> 2.5 µM
CN1CCC(c2cc3cc(Cl)ccc3o2)CC1	SARS-CoV-2	viral replication, GFP plate reader screen	BetaCov/Belgium/GHB-03021/2020	cell-based		EC50	17.2 µM
CNCCN(C)c1nc(NC(C)c2ccccc2)c2ccccc2n1 (stereo not shown)	SARS-CoV-2	cytopathic effect, cell-based CPE	USA_WA1/2020	round 2, 5-point dilution		AC50	10 µM
C[C@H](CS)C(=O)N1CCC[C@H]1C(=O)O	SARS-CoV-2			concentration not given, Paris laboratory		viral replication inhibition	inactive
Cc1ccc(Nc2ccnc(N3CCC(C(=O)NCCCc4ccccc4)CC3)n2)cc1	SARS-CoV-2	cytopathic effect, cell-based CPE	USA_WA1/2020			AC50	8.91 µM
O=C1CC2(CCCC2)CC(=O)N1CCCCN1CCN(c2nsc3ccccc23)CC1	SARS-CoV-2	viral replication, GFP plate reader screen		cell-based		EC50	> 100 µM
CC[C@H](C)[C@H](NC(=O)[C@H](CC(C)C)NC(=O)[C@H](Cc1c[nH]c2ccccc12)NC(=O)[C@H](CCC(N)=O)NC(=O)[C@@H](NC(=O)[C@H](Cc1ccccc1)NC(=O)[C@H](C)NC(=O)[C@H](CCCCNC(=O)COCCOCCNC(=O)COCCOCCNC(=O)CC[C@H](NC(=O)CCCCCCCCCCCCCCCCCCC(=O)O)C(=O)O)NC(=O)[C@H](CCC(N)=O)NC(=O)[C@H](C)NC(=O)[C@@H](NC(=O)[C@H](CCCCN)NC(=O)[C@H](CC(=O)O)NC(=O)[C@H](CC(C)C)NC(=O)C(C)(C)NC(=O)[C@@H](NC(=O)[C@H](CO)NC(=O)[C@H](Cc1ccc(O)cc1)NC(=O)[C@H](CC(=O)O)NC(=O)[C@H](CO)NC(=O)[C@@H](NC(=O)[C@H](Cc1ccccc1)NC(=O)[C@@H](NC(=O)CNC(=O)[C@H](CCC(=O)O)NC(=O)C(C)(C)NC(=O)[C@@H](N)Cc1ccc(O)cc1)[C@@H](C)O)[C@@H](C)O)[C@@H](C)CC)[C@@H](C)CC)C(C)C)C(=O)N[C@@H](C)C(=O)NCC(=O)NCC(=O)N1CCC[C@H]1C(=O)N[C@@H](CO)C(=O)N[C@@H](CO)C(=O)NCC(=O)N[C@@H](C)C(=O)N1CCC[C@H]1C(=O)N1CCC[C@H]1C(=O)N1CCC[C@H]1C(=O)N[C@@H](CO)C(N)=O			healthy subjects	1.5 mg, multiple ascending dose		injection site reaction	0%
Oc1ncnc2[nH]ncc12	SARS-CoV-2	viral replication	Huh-7			IC50	> 2 µM
CCN(CC)CCOC(=O)C(O)(c1ccccc1)c1ccccc1	SARS-CoV-2	viral replication, RT-qPCR	A549 expressing ACE2			IC50	> 10 µM
CC(C)(C)[C@H](NC(=O)C(F)(F)F)C(=O)N1C[C@H]2[C@@H]([C@H]1C(=O)N[C@H](C#N)C[C@@H]1CCNC1=O)C2(C)C	SARS-CoV-2	viral replication, infectious virus	Vero E6	3.333 µM		inhibition	92.8%
Cc1nn(-c2ccc(Cl)cc2)c2c1C(c1ccc(Cl)cc1)C(C#N)=C(N)O2 (stereo not shown)	SARS-CoV-2		Vero C1008	1 µM	relative to: positive control	viral titre log reduction	0.06 log10
COc1ccc2cc1Oc1ccc(cc1)C[C@H]1c3cc(c(OC)cc3CCN1C)Oc1c(OC)c(OC)cc3c1[C@H](C2)N(C)CC3	SARS-CoV-2	viral replication	293T-ACE2, USA-WA1/2020			EC90	1.87 µM
O=C(O[C@@H]1Cc2c(O)cc(O)cc2O[C@@H]1c1cc(O)c(O)c(O)c1)c1cc(O)c(O)c(O)c1	SARS-CoV-2	viral replication	Vero E6	0.7812 µM		CPE inhibition	0%
Cn1cnc(Cn2c(=O)[nH]/c(=N\c3cc4cn(C)nc4cc3Cl)n(Cc3cc(F)c(F)cc3F)c2=O)n1	SARS-CoV-2	viral replication	Vero C1008, wild type	0.005716 µM		inhibition	0%
CCCCSCCCNC(=O)C1CCN(Cc2nc(-c3ccc(CC)cc3)oc2C)CC1	SARS-CoV-2	cytopathic effect, cell-based CPE	USA_WA1/2020	round 2, 5-point dilution		efficacy	99%
COc1cccc2c1C(=O)c1c(O)c3c(c(O)c1C2=O)C[C@@](O)(C(C)=O)C[C@@H]3O[C@H]1C[C@H](N)[C@H](O)[C@H](C)O1	SARS-CoV-2			concentration not given, Paris laboratory		viral replication inhibition	inactive
Cc1nn(-c2ccc(Cl)cc2)c2c1C(c1ccc(Cl)cc1Cl)C(C#N)=C(N)O2 (stereo not shown)	SARS-CoV-2		Vero	1 µM		viral titre	840000 IU/mL
CCCCCCCC(=O)N[C@H](CN1CCCC1)[C@H](O)c1ccc2c(c1)OCCO2	SARS-CoV-2	viral replication	Huh-7			IC50	> 2 µM
C=CCN1CC[C@@]2(C)c3cc(O)ccc3C[C@@H]1[C@@H]2C	SARS-CoV-2	viral replication	A549 expressing ACE2	inactive set pIC50 4		IC50	> 10 µM
CNS(=O)(=O)CCc1ccc2[nH]cc(C3CCN(C)CC3)c2c1	SARS-CoV-2	viral replication	Huh-7			IC50	> 2 µM

Molecule	tested on	assay	system	conditions	how to read	endpoint	result
COc1cc(C2C(C#N)=C(N)Oc3c2c(C)nn3-c2ccc(Cl)cc2)cc(OC)c1OC (stereo not shown)	SARS-CoV-2	RT-qPCR, item: viral RNA	Vero	10 µM	higher means less virus	Ct value	24.9 cycles
CC1CCN(CCCC(=O)c2ccc(F)cc2)CC1	SARS-CoV-2	viral replication, anti-nucleoprotein immunostaining	Vero E6			IC50	> 10 µM
CN(C)CCON=C1c2ccccc2CCc2ccccc21	SARS-CoV-2	viral replication, GFP plate reader screen		cell-based		EC50	14.1 µM
O=C(/C=C/c1ccc(O)c(O)c1/C=C/c1ccc(O)c(O)c1)O[C@H](Cc1ccc(O)c(O)c1)C(=O)O	SARS-CoV-2	viral replication	Vero E6	1.562 µM		CPE inhibition	0%
CCN(CC)Cc1cc(Nc2ccnc3cc(Cl)ccc23)ccc1O	SARS-CoV-2	cytopathic effect, cell-based CPE	USA_WA1/2020	round 2, 5-point dilution		efficacy	83.4%
Cc1sc2c(c1C)C(c1ccc(Cl)cc1)=N[C@@H](CC(=O)OC(C)(C)C)c1nnc(C)n1-2	SARS-CoV-2			concentration not given, Paris laboratory		viral replication inhibition	inactive
Cc1nc2ccccn2c(=O)c1CCN1CCC(=C(c2ccc(F)cc2)c2ccc(F)cc2)CC1	SARS-CoV-2	viral replication, GFP plate reader screen		cell-based		EC50	7.59 µM
CC(C)(C)NCc1ccc(Nc2ccnc3cc(Cl)ccc23)cc1O	SARS-CoV-2	viral replication	Huh-7-ACE2, USA-WA1/2020			EC90	> 2.5 µM
Cc1nn(-c2ccc(Cl)cc2)c2c1C(c1ccc(I)cc1)C(C#N)=C(N)O2 (stereo not shown)	SARS-CoV-2	RT-qPCR, item: viral RNA	Vero	10 µM	higher means less virus	Ct value	24.4 cycles
CC(C)(C)N1CCC(c2ccccc2)(c2ccccc2)CC1	SARS-CoV-2	cytopathic effect	USA_WA1/2020	retest, 8-point, duplicates		efficacy	20.2%
OC(CCCN1CCc2c(c3cc(F)ccc3n2-c2ccc(F)cc2)C1)c1ccc(F)cc1 (stereo not shown)	SARS-CoV-2	viral replication, high-content imaging screen		cell-based		EC50	> 100 µM
COc1ccc(C[C@@H]2c3cc(Oc4cc(C[C@@H]5c6cc(O)c(OC)cc6CCN5C)ccc4O)c(OC)cc3CCN2C)cc1	SARS-CoV-2	viral replication	Vero E6	3.125 µM	relative to: mean of replicates	CPE inhibition	0%
Cc1nn(-c2ccc(Cl)cc2)c2c1C(c1c(Cl)cccc1Cl)C(C#N)=C(N)O2 (stereo not shown)	SARS-CoV-2		Vero	1 µM		viral titre	1e+06 IU/mL
Cc1oc(-c2cccc(Cl)c2)nc1CN1CCCC(C(=O)NCCc2ccc(Cl)cc2)C1 (stereo not shown)	SARS-CoV-2	cytopathic effect	USA_WA1/2020	retest, 8-point, duplicates		efficacy	43.4%
CN(C(=O)CN(CCO)CC(=O)N(C)C(C)(C)Cc1ccccc1)C(C)(C)Cc1ccccc1	SARS-CoV-2	viral replication, GFP plate reader screen		cell-based		EC50	18.6 µM
COc1ccc(CC(=O)NC2CCN(Cc3ccc(-c4ccccc4OC)cc3)C2)cc1 (stereo not shown)	SARS-CoV-2	cytopathic effect	USA_WA1/2020	round 1, 5-point		efficacy	102%
CC(=O)[C@H]1CC[C@H]2[C@@H]3CCC4=CC(=O)CC[C@]4(C)[C@H]3CC[C@]12C	SARS-CoV-2	viral replication, anti-nucleoprotein immunostaining	Vero E6			IC50	14.1 µM
COc1cccc2c(N3CCc4ccccc4C3C)nc(Nc3ccc(F)cc3C)nc12 (stereo not shown)	SARS-CoV-2	viral replication	293T-ACE2, USA-WA1/2020			EC90	> 2.5 µM
COc1cc(/C=C/C(=O)N2CCC=CC2=O)cc(OC)c1OC	SARS-CoV-2	viral replication, high-content imaging screen	BetaCov/Belgium/GHB-03021/2020	cell-based		EC50	> 50.1 µM
Cc1ccc(C)c(Nc2cc(C(=O)NCCCN(C)C3CCCCC3)c3ccccc3n2)c1	SARS-CoV-2	cytopathic effect	USA_WA1/2020	round 2, 5-point		maximum response	74.6%
CC(C)(Cc1c[nH]c2ccccc12)NCC(O)COc1ccccc1C#N (stereo not shown)	SARS-CoV-2	viral replication, GFP plate reader screen		cell-based		EC50	17 µM
CC(C)=CCc1c(O)ccc(C(=O)/C=C/c2ccc(O)cc2)c1O	SARS-CoV-2	viral replication	Vero E6	0.7812 µM		CPE inhibition	0%
CN(CCc1ccc(Cl)c(Cl)c1)CCN1CCCC1	SARS-CoV-2			concentration not given, Paris laboratory		viral replication inhibition	inactive

Repeated from above:
Molecule	tested on	assay	system	conditions	how to read	endpoint	result
COc1cccc2c1C(=O)c1c(O)c3c(c(O)c1C2=O)C[C@@](O)(C(C)=O)C[C@@H]3O[C@H]1C[C@H](N)[C@H](O)[C@H](C)O1	SARS-CoV-2			concentration not given, Paris laboratory		viral replication inhibition	inactive
COc1cc(/C=C/C(=O)N2CCC=CC2=O)cc(OC)c1OC	SARS-CoV-2	viral replication, high-content imaging screen	BetaCov/Belgium/GHB-03021/2020	cell-based		EC50	> 50.1 µM
Cc1ccc(Nc2ccnc(N3CCC(C(=O)NCCCc4ccccc4)CC3)n2)cc1	SARS-CoV-2	cytopathic effect, cell-based CPE	USA_WA1/2020			AC50	8.91 µM
O=C(/C=C/c1ccc(O)c(O)c1/C=C/c1ccc(O)c(O)c1)O[C@H](Cc1ccc(O)c(O)c1)C(=O)O	SARS-CoV-2	viral replication	Vero E6	1.562 µM		CPE inhibition	0%
Cc1nn(-c2ccc(Cl)cc2)c2c1C(c1ccc(I)cc1)C(C#N)=C(N)O2 (stereo not shown)	SARS-CoV-2	RT-qPCR, item: viral RNA	Vero	10 µM	higher means less virus	Ct value	24.4 cycles
CC1CCN(CCCC(=O)c2ccc(F)cc2)CC1	SARS-CoV-2	viral replication, anti-nucleoprotein immunostaining	Vero E6			IC50	> 10 µM
